Assay results gathered from unrelated publications.
A part holds a random share of what one study measured.
UniProt O15294, sequence (whole entry, looked up): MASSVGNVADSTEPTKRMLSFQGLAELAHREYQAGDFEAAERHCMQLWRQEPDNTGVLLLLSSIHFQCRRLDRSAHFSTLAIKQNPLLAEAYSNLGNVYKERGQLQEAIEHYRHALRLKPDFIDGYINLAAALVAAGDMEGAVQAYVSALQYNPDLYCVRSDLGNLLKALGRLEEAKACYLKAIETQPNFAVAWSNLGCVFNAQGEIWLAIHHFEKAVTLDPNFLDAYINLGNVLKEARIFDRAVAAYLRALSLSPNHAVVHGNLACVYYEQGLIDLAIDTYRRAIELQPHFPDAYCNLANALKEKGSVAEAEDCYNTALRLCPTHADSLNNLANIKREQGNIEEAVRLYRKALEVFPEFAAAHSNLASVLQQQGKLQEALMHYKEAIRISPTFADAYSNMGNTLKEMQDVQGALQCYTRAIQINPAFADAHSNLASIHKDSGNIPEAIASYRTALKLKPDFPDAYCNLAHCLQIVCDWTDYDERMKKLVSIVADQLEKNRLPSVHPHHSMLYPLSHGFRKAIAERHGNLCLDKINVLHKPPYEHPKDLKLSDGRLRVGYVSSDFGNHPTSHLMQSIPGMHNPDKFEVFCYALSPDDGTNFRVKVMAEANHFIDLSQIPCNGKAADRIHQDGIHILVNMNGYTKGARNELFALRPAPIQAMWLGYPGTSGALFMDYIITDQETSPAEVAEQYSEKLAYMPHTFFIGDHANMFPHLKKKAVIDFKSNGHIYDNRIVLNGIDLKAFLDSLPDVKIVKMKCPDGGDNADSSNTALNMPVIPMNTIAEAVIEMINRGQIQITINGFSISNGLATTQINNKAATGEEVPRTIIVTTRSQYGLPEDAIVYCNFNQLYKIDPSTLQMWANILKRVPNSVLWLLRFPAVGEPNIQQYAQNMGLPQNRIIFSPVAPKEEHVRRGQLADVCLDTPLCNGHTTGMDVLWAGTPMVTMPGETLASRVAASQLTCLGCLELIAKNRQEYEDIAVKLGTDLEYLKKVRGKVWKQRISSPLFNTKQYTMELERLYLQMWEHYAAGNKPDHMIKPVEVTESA

Series 1 — method: RNA Bind-n-Seq; form: RNA; medium: in vitro; tested at: 20 nM; setting: 6-mer, flanks averaged, single round; together with: 150 mM LiCl; baseline: input library; reading: higher = stronger binding
Target: TAR DNA-binding protein 43, full length, His tag (TARDBP, Homo sapiens, UniProt Q13148, residues 1-414)
Strand	6-mer enrichment (R)
GGUAGA	1.12
GUCAGC	0.891
CACUUU	0.988
UCGCGG	0.983
AGUCUA	0.818
GUGGCU	1.11
AGAACG	0.917
GUCGCG	1.06

Series 2 — method: RNA Bind-n-Seq; form: RNA; medium: in vitro; tested at: 1 µM; setting: whole 134-nt RNA, ends assumed; together with: 150 mM KCl; baseline: input library; reading: higher = stronger binding
Target: Ras GTPase-activating protein-binding protein 1, C-terminal RGG region (G3BP1, Homo sapiens, UniProt Q13283)
UniProt Q13283, sequence (whole entry, looked up): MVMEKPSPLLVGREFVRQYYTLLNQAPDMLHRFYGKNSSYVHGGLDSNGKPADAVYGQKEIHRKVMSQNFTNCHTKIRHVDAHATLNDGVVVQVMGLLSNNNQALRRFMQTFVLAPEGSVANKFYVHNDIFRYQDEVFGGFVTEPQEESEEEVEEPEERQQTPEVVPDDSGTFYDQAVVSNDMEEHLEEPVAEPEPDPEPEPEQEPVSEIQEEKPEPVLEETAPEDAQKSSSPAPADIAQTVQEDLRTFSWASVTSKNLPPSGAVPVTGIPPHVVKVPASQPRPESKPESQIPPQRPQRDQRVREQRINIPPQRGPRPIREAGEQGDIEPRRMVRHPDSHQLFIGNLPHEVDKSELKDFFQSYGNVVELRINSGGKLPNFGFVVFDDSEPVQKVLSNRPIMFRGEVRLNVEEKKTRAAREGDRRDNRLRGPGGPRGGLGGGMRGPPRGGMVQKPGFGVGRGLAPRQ
All sequences stand within: GGGAGUUCUACAGUCCGACGAUC … UGGAAUUCUCGGGUGUCAAGG
Strand	log2 enrichment
UGGGAGGUGGAUUUUGUUUAUUUUUUUAGCUCAUUUCCAGGGGUGGGAAUUUUUUUUUAAUAAGUGUCAUGAAUAAAGUUGUUUUUGAAA	3.53
UGGGAGGUGGAUUUUGUUUAUUUUUUUAGCUGAUUUCCAGGGGUGGGAAUUUUUUUUUAAUAUGUGUCAUGAAUAAAGUUGUUUUUGAAA	3.49
GUCCUGUGCUACACAUCGUAUGUACCGAAUCGGGGAAAAAGGGGUGGGGUUUUUGGGGAAAGUAUUAUGUUACGCCGUUCGGAUCUGCAC	1.3
CCUCAAGUCCUGUGCUACACAUCGUAUGUACCGAAUCGGAAAGGAGGUUUGGAAAGUAUUAUGUUACGCCGUUCGGAUCUGCACUUCCAG	-0.972
UUGCAGGAGCCGCCGCGCCUCGGCCUAGCAUGUCGGAAGCGGGCGAGGAGCAGCCCAUGGAGACGACGGGCGCCACCGAGAACGGACAUG	-0.956
CCUCAAGUCCUGUGCUACACAUCGUAUGUACCGAAUCGGAAAAAGGUGGAGGAAAGUAUUAUGUUACGCCGUUCGGAUCUGCACUUCCAG	-0.656
ACCAUGCAGGUGGGCAUCUUUGGGAAGUGGGGCAAGGGGGGGAUAGGGAGGGGGGUAACACUUUGGGAACAGGUGGUUCCAGGUCGUUUC	2.68
UCCUGUGCUACACAUCGUAUGUACCGAAUCGGAAAAAAGGAAAAAAGGGGAAAAAAGGGAAAGUAUUAUGUUACGCCGUUCGGAUCUGCA	-1.42

Series 3 — method: protein-binding microarray; form: double-stranded DNA, one strand shown; medium: in vitro; tested at: 0.8 µM; setting: whole 60-bp probe, no competitor; reading: higher = stronger binding; all sequences stand within: … GTCTTGATTCGCTTGACGCTGCTG
Target: Centromere-binding protein 1, full length, N-terminal tag (CBF1, Saccharomyces cerevisiae, UniProt P17106, residues 1-351)
UniProt P17106, sequence (whole entry, looked up): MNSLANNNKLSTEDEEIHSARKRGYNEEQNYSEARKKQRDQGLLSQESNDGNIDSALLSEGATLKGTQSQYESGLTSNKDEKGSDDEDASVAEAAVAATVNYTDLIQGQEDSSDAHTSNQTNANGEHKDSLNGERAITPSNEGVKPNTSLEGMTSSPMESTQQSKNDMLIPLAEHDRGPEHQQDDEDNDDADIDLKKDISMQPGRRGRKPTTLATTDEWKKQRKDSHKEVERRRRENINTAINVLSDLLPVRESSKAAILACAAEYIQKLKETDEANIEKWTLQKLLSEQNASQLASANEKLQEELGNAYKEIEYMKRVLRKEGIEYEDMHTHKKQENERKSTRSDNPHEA
Strand	fluorescence intensity [a.u.]
CTATTTCGTCTTTTTCATCTGATGACATTCTAGTTC	583
CTACCCTCCTGCGGGCACGCATGCGCCTTTGATTTC	546
GAACTCATAACCTATGTCACCATCTAACACCGTTAG	546
CTAGTCAGGAGGGTGCACGTTGAAGCAGTGCGTTTC	569
GAAGGTTCATTCCTAATTGTGACCAATGTAATATAG	543
GAATGATAATGTGAACACGTCATCATAGACGGTTAG	569
CTATCGTTCCTCGCGCACGCGATTTTGCGTTCTTTC	568
CTAGTATGAAGATAACGCGTGGTTCCGTGGAAATTC	509

Single results of other studies
Sequence	target	assay	test system	setting	scale	measurement	value
QYVPYYQIEVNSQPY	UDP-N-acetylglucosamine--peptide N-acetylglucosaminyltransferase 110 kDa subunit (OGT, Homo sapiens, UniProt O15294)	binding, phage display NGS	peptide	panning round 2	baseline: input library	minimum log2 enrichment ratio	2.39

For quick reference, copied from above (series 3):
Strand	fluorescence intensity [a.u.]
GAAGGTTCATTCCTAATTGTGACCAATGTAATATAG	543
GAATGATAATGTGAACACGTCATCATAGACGGTTAG	569
